Measurements from different studies.
Every numbered part comes from another study and shows a few of its results, in no order.

Block 1 — technique: RNAcompete; molecule type: RNA; medium: in vitro; concentration: 20 nM; setting: 7-mer, probes averaged, single round; relative to: mean of 7-mers; direction: higher = stronger binding
Target: PABPC1L2, full length, GST fusion (mouse, UniProt A0ABA7IW68)
Construct (chain): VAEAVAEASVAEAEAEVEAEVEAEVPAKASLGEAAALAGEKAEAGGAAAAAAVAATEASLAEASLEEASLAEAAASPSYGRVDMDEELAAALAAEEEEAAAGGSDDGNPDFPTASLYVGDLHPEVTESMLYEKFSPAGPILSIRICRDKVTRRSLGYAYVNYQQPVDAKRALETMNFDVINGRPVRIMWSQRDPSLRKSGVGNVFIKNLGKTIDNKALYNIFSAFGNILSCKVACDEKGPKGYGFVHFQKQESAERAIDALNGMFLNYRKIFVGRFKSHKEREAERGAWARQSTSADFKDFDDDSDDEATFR
| Strand | 7-mer Z-score |
| --- | --- |
| UGGACUC | -0.0228 |
| UCAUCGA | -0.277 |
| GAGAAGU | -0.00652 |
| CACUGCG | -0.139 |
| UCUGUAU | -0.296 |
| UCGCCAA | -0.307 |
| AAAUAAC | 1.99 |

Block 2 — technique: aptamer microarray, sandwich; molecule type: DNA with 2'F-ANA; medium: in vitro; concentration: 200 nM; with: Cy3 exosite-II aptamer, 400 nM; direction: higher = stronger binding; strand: GGTTGGTGTGGTTGG
Target: Prothrombin, mature alpha-thrombin (F2, Homo sapiens, UniProt P00734)
Setting: whole 15-mer aptamer, many near background
| Modification | mean fluorescence intensity [a.u.] |
| --- | --- |
| 2'F-ANA at 1 2 3 4 6 10 12 13 15 | 61.7 |
| 2'F-ANA at 2 3 4 6 7 8 9 10 11 12 14 15 | 138 |
| 2'F-ANA at 1 2 4 7 11 | 109 |
| 2'F-ANA at 2 3 6 7 8 9 11 | 662 |
| 2'F-ANA at 11 14 15 | 177 |

Block 3 — technique: protein binding microarray; molecule type: double-stranded DNA, one strand shown; medium: in vitro; concentration: not given; relative to: not given; direction: higher = stronger binding
Target: Histone acetyltransferase KAT6A, both winged helices, GST fusion (KAT6A, Homo sapiens, UniProt Q92794, residues 1-181)
Setting: 8-mer, flanks averaged, mean of 2 arrays, mostly near background
Construct (chain): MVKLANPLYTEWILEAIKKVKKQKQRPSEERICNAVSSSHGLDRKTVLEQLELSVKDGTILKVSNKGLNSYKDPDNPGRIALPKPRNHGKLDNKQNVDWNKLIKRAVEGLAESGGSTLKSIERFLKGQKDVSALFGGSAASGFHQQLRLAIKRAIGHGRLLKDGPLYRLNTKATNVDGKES
| Strand | E-score |
| --- | --- |
| CCCACATC | -0.261 |
| AAGTAGGT | -0.0815 |
| CGGAGATA | 0.169 |
| AATAGTCC | -0.0605 |
| ATATAAGA | -0.0125 |

Single results of other studies
| Molecule | target | assay | test system | conditions | how to read | endpoint | result |
| --- | --- | --- | --- | --- | --- | --- | --- |
| PhoQ, residues 284 288 289 292 302 303 TVTVVA | PhoP, residues 12 14 15 18 19 AWHSL (Escherichia coli, UniProt P23836) | Sort-seq, item: YFP reporter | E. coli | PhoQ-PhoP variant library, with: 10 µM Mg2+ | relative to: high Mg2+ state, higher = stronger signaling | fold induction | 1.65 |

Excerpt of the above (block 1):
| Strand | 7-mer Z-score |
| --- | --- |
| GAGAAGU | -0.00652 |
| UCUGUAU | -0.296 |
| UCGCCAA | -0.307 |
